Measured values gathered from unrelated publications.
Lines come from different studies, so protocols differ.

SMILES | tested on | assay | system | conditions | scale | measurement | result
CN1CCCNC(=O)c2cccc(c2)C(=O)NCCCN(C)CCCNc2cccc3c2C(=O)c2cccc(c2C3=O)NCCC1 | SAS | RNA-Seq, measured: KIF14 mRNA | – | 1 µM, 6 h | relative to: untreated cells | log2 fold change | -0.713
CNS(=O)(=O)Nc1nccc(Cc2c(C)c3ccc(Oc4ncccc4F)cc3oc2=O)c1F | H4 | cell viability, CellTiter-Glo | – | 7 days | – | IC50 | > 1000 nM
Cn1ncc2cc(-c3cncc(Cl)c3N3CCC4(CCNC4=O)CC3)ccc21 | LS174T | gene expression, microarray, measured: CBWD1 mRNA | – | concentration not given, 4 h | relative to: untreated cells | log2 fold change | 1.61
CC(C)c1ccc(N(C)c2ccc3c(c2)OCC[C@H]3CNc2cnccc2C(=O)O)cc1 | REH | cell growth or viability, ATP luminescence | – | 7 days | – | IC50 | 1.21 nM
Cc1ncsc1-c1ccc(C(C)NC(=O)C2CC(O)CN2C(=O)C(NC(=O)CCCCCCCCCCN2CCCC(Nc3ncc(Cl)c(Nc4ccccc4S(=O)(=O)C(C)C)n3)C2)C(C)(C)C)cc1 (stereo not drawn) | 22Rv1 | RNA-seq, measured: PSRC1 mRNA | – | concentration not given | relative to: DMSO | log2 fold change | -1.37
CCN(C(=O)c1cc(F)ccc1Oc1nncnc1N1CCC2(C1)CN([C@H](CCCN(C)CCOC)C(C)C)C2)C(C)C | IGROV-1 | cell growth or viability | – | 72 h | – | GI50 | > 10000 nM
COC(=O)c1cc(NC2=NC(=O)C(=Cc3ccc(N(C)C)cc3)S2)ccc1OC(C)=O | MCF7 | GC-MS, measured: 2-Butenedioic acid | – | 1 µM | relative to: DMSO | metabolite level | -0.06 fold change
CCN(CC)CC(=O)Nc1cccc(-n2cc(-c3ccc4ccc(-c5cn(-c6cccc(NC(=O)CN(CC)CC)c6)nn5)cc4c3)nn2)c1 | RCC4 | PCR angiogenesis array, measured: SPHK1 | – | 5 x IC50, 4 h, normoxia | relative to: untreated | fold regulation | -1.1
COC1CN([C@H]2CC[C@H]([C@@]3(C)Oc4c(Cl)cc(C(=O)NCc5c(SC)cc(C)[nH]c5=O)c(C)c4O3)CC2)C1 | – | RNA-seq, measured: MAP1LC3A | human, whole blood | dose not given, 24 h | relative to: pretreatment baseline | log2 fold change | 1.07

Excerpt of the above:
SMILES | tested on | assay | system | conditions | scale | measurement | result
CCN(C(=O)c1cc(F)ccc1Oc1nncnc1N1CCC2(C1)CN([C@H](CCCN(C)CCOC)C(C)C)C2)C(C)C | IGROV-1 | cell growth or viability | – | 72 h | – | GI50 | > 10000 nM
